Published values of several laboratories.
± marks the error that the study gave.
Kcnmb1 with BK alpha subunit: Calcium-activated potassium channel subunit beta-1, with BK alpha subunit (Kcnmb1, Rattus norvegicus, UniProt P97678)
UniProt P97678, sequence (whole entry, looked up): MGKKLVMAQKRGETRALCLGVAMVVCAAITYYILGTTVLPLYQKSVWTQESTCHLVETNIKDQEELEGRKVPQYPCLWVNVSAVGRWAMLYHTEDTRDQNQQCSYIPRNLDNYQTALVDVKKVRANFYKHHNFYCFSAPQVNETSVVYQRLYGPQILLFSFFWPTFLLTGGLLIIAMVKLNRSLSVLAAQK
PRMT8: Protein arginine N-methyltransferase 8 (PRMT8, Homo sapiens, UniProt Q9NR22)
UniProt Q9NR22, sequence (whole entry, looked up): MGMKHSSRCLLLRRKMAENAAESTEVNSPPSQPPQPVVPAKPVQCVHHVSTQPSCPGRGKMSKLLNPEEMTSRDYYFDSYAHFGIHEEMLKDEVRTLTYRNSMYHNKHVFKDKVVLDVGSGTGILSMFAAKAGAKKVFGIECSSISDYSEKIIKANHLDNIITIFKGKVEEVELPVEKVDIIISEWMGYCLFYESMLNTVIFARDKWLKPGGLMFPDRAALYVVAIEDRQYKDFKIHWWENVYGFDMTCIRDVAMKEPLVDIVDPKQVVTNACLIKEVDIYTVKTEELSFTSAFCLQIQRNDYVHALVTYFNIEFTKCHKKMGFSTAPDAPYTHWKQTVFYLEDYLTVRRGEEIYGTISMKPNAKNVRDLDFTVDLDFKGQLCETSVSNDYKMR
UniProt Q923J1, sequence (whole entry, unmodified, looked up): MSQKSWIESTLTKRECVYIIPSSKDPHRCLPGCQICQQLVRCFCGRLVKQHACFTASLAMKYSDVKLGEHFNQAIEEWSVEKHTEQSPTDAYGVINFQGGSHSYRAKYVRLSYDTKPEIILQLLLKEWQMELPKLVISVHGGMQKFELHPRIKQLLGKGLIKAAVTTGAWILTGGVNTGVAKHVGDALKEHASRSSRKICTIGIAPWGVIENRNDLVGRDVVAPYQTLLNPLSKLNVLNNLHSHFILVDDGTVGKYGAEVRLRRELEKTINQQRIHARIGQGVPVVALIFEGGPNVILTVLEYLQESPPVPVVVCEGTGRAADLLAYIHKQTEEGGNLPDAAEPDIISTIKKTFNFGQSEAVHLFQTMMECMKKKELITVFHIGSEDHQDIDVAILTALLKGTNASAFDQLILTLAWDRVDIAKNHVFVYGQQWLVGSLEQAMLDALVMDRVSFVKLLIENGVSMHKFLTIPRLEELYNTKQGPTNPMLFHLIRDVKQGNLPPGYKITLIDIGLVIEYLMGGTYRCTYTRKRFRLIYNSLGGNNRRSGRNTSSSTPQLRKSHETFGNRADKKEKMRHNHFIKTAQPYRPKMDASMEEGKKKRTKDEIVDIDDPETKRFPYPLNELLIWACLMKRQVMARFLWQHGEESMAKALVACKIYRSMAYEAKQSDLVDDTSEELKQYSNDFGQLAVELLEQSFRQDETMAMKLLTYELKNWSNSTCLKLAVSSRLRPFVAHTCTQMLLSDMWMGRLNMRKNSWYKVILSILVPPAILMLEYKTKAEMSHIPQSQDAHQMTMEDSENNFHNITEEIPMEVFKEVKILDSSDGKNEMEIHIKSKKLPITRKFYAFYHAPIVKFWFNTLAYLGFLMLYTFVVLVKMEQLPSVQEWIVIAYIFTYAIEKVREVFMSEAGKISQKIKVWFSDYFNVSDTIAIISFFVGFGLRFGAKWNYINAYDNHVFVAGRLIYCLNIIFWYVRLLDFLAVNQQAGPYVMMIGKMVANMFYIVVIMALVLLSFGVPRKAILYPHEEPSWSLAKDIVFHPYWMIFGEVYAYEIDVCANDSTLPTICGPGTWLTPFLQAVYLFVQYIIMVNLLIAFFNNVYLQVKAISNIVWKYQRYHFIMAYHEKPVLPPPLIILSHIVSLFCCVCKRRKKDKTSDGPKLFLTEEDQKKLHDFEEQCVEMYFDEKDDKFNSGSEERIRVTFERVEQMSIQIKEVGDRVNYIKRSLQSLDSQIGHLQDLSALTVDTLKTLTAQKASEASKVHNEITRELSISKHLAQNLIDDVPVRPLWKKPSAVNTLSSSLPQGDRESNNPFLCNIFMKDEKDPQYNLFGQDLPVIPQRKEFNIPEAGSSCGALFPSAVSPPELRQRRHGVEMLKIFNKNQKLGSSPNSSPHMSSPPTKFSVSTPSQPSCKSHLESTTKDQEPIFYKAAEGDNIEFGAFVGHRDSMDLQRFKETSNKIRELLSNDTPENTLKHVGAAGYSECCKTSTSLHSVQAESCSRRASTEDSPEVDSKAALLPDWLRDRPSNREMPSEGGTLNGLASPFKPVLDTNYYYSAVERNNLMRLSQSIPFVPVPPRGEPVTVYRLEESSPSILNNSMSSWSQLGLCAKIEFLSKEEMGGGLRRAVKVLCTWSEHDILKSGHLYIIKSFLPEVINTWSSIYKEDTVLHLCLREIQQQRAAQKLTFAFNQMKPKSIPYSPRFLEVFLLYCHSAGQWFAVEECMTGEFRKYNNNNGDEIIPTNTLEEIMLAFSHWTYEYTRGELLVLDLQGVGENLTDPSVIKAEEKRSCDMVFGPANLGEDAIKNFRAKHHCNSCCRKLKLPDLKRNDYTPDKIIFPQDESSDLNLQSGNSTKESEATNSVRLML
UniProt Q12791, sequence (whole entry, looked up): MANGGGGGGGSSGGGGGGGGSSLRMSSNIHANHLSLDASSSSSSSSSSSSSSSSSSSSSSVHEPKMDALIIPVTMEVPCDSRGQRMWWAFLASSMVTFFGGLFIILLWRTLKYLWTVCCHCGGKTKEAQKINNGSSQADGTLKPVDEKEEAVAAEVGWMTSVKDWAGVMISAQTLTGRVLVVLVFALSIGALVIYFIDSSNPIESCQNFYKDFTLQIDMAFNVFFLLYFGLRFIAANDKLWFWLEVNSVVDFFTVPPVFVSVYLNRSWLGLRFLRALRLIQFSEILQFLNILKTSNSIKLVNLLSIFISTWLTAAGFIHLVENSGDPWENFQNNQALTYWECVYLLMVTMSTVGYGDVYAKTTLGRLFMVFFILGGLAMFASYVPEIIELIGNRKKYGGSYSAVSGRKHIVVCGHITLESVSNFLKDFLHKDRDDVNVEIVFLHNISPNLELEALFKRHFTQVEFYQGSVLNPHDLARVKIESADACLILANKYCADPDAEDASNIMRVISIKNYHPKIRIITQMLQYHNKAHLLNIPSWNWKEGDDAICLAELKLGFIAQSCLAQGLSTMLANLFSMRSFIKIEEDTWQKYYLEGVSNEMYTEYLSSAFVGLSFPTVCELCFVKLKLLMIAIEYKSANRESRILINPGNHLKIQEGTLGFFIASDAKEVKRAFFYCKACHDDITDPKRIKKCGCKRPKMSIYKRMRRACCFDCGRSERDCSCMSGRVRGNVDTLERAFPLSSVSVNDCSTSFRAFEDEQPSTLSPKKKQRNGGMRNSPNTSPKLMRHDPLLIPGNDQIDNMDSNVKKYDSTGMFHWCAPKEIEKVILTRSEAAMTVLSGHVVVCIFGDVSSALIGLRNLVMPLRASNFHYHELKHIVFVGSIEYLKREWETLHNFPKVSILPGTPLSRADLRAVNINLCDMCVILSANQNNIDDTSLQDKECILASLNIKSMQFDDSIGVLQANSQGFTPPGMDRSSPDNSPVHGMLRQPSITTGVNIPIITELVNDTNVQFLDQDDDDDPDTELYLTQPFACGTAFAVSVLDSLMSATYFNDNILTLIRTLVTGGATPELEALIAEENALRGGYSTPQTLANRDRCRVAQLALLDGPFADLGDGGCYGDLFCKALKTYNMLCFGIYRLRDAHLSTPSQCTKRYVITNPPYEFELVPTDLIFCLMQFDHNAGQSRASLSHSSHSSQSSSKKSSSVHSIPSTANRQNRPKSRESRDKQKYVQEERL
UniProt Q96D96, sequence (whole entry, looked up): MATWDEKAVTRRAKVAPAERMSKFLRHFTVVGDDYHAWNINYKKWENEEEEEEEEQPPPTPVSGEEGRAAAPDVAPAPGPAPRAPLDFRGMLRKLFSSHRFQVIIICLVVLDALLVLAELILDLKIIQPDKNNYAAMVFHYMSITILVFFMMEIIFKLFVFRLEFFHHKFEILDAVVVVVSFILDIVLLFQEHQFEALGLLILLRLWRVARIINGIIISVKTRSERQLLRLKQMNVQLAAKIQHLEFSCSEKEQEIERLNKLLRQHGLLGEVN
UniProt Q9QXD6, sequence (whole entry, unmodified, looked up): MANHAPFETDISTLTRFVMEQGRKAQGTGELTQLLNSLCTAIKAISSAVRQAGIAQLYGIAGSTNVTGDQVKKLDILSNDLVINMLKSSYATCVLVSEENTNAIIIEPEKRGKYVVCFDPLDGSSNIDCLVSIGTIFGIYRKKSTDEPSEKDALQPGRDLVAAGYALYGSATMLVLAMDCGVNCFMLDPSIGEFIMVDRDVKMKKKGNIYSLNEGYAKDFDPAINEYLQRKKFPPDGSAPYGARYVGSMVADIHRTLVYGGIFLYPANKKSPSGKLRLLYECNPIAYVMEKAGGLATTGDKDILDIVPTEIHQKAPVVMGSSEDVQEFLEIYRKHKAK

SMILES	target	test	system	setting	Hill coefficient
O=C(Nc1ccccc1)c1nnc(/C(Cl)=C\c2cccc([N+](=O)[O-])c2)s1	Kcnmb1 with BK alpha subunit	BK channel current	CHO with alpha and beta1	–	0.19 ± 0.12
CN(C)C(=O)C(CCN1CCC(O)(c2ccc(Cl)cc2)CC1)(c1ccccc1)c1ccccc1	Calcium-activated potassium channel subunit alpha-1, with LRRC26 γ1 subunit (KCNMA1, Homo sapiens, UniProt Q12791)	BK channel conductance, inside-out patch clamp	–	BKα/γ1, Vm 40 mV, nominally Ca2+-free	0.756 ± 0.11
c1ccc2c(c1)CCC[C@H]2Nc1nc2ccccc2[nH]1	Transient receptor potential cation channel subfamily M member 7 (Trpm7, Mus musculus, UniProt Q923J1, F924W)	calcium influx, inhibitor, aequorin luminescence	HEK293T expressing Trpm7	–	1.46 ± 0.11
O=P(O)(O)OC[C@H]1O[C@@](CO)(OP(=O)(O)O)[C@@H](O)[C@@H]1O	Fructose-1,6-bisphosphatase 1 (Mus musculus, UniProt Q9QXD6, G27P)	–	–	untagged G27P	1.45 ± 0.14
O=C(Cc1ccc([N+](=O)[O-])cc1)NC[C@H](c1ccccc1Cl)c1c[nH]c2ccccc12	Kcnmb1 with BK alpha subunit	BK channel current	CHO with alpha and beta1	–	0.11 ± 0.09
N=C(N)Nc1nc2ccccc2[nH]1	Voltage-gated hydrogen channel 1 (HVCN1, Homo sapiens, UniProt Q96D96)	proton current, inhibitor, inside-out patch clamp	–	–	0.88 ± 0.02
CCCCN1/C(=C/C=C/c2sc3ccc(Br)cc3[n+]2CCCC)Sc2ccc(Br)cc21.[I-]	PRMT8	inhibitor, scintillation proximity	–	with: biotinylated histone H4 peptide substrate	1.12
C/C(=N\Nc1ccc([N+](=O)[O-])cc1S(=O)(=O)Nc1ccccc1Cl)c1ccc2ccccc2c1O	Kcnmb1 with BK alpha subunit	BK channel current	CHO with alpha and beta1	–	0.25 ± 0.13
CC1(C)C(/C=C/C=C2/N(CCCc3ccccc3)c3ccc4ccccc4c3C2(C)C)=[N+](CCCc2ccccc2)c2ccc3ccccc3c21.[Br-]	PRMT8	inhibitor, scintillation proximity	–	with: biotinylated histone H4 peptide substrate	1.63
N#Cc1ccc(COC[C@H]2O[C@@H](n3c(NCc4ccc(Cl)c(Cl)c4)nc4c(N)ncnc43)[C@H](O)[C@@H]2O)cc1	Transient receptor potential cation channel subfamily M member 7 (Trpm7, Mus musculus, UniProt Q923J1)	calcium influx, inhibitor, aequorin luminescence	HEK293T expressing wild-type Trpm7	–	2.27 ± 0.25
CCCCN1/C(=C/C=C(Br)/C=C/C2=[N+](CCCC)c3ccc(Br)cc3C2(C)C)C(C)(C)c2cc(Br)ccc21.[I-]	PRMT8	inhibitor, scintillation proximity	–	with: biotinylated histone H4 peptide substrate	0.62
CC[C@@H](C)NS(=O)(=O)c1cc([N+](=O)[O-])ccc1Oc1c(C)c(C(=O)NC[C@@H]2CCCO2)nn1-c1cccc(C)c1C	Kcnmb1 with BK alpha subunit	BK channel current	CHO with alpha and beta1	–	0.31 ± 0.09
